Measurements of several laboratories.
Every numbered part comes from another study and shows a few of its results, in no order. Several values in a cell are separate wells, animals, samples, runs or records.
UniProt Q92772, sequence (whole entry, looked up): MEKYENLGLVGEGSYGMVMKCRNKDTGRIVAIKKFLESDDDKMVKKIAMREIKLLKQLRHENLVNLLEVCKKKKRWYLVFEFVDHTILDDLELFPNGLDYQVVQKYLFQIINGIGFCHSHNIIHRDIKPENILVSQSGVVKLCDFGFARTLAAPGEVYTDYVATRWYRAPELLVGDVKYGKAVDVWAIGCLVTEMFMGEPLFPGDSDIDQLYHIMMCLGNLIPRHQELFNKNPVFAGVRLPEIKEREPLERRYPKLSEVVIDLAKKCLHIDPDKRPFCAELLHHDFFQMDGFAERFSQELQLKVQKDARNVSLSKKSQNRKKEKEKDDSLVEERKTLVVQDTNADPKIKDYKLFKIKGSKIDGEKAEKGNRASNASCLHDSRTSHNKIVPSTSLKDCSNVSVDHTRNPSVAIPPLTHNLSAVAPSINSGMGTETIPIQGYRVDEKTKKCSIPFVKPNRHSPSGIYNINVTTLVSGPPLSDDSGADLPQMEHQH
UniProt Q9Y6M4, sequence (whole entry, looked up): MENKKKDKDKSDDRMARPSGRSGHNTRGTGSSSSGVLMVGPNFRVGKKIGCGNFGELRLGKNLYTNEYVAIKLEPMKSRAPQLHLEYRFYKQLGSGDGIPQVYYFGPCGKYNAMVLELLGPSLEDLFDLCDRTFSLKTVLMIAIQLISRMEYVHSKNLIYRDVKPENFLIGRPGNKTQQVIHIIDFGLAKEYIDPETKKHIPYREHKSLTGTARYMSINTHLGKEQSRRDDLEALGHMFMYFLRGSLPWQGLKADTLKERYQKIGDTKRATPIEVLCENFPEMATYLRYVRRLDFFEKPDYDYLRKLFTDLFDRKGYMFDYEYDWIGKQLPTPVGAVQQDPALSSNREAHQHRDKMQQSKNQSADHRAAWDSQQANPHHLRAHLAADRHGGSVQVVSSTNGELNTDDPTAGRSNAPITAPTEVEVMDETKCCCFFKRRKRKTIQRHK
UniProt Q9UK32, sequence (whole entry, looked up): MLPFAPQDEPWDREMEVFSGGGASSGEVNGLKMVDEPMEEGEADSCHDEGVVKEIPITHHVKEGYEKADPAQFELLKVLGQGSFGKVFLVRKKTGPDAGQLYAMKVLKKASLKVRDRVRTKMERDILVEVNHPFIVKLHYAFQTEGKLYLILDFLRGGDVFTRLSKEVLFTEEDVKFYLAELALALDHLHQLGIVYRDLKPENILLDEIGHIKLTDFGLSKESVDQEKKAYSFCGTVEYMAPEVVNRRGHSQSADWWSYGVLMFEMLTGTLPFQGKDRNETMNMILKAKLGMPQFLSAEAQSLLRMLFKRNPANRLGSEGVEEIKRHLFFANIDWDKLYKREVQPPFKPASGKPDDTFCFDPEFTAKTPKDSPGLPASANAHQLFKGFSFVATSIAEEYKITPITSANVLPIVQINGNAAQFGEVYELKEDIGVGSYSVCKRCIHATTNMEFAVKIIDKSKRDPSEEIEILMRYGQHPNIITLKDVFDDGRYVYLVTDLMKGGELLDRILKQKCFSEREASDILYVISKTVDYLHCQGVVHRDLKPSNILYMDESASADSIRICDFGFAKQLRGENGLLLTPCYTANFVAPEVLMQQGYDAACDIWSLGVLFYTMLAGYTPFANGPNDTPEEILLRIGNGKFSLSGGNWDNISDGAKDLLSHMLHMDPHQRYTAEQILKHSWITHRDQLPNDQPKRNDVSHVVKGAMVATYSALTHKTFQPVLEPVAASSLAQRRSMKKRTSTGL
UniProt Q8NI60, sequence (whole entry, looked up): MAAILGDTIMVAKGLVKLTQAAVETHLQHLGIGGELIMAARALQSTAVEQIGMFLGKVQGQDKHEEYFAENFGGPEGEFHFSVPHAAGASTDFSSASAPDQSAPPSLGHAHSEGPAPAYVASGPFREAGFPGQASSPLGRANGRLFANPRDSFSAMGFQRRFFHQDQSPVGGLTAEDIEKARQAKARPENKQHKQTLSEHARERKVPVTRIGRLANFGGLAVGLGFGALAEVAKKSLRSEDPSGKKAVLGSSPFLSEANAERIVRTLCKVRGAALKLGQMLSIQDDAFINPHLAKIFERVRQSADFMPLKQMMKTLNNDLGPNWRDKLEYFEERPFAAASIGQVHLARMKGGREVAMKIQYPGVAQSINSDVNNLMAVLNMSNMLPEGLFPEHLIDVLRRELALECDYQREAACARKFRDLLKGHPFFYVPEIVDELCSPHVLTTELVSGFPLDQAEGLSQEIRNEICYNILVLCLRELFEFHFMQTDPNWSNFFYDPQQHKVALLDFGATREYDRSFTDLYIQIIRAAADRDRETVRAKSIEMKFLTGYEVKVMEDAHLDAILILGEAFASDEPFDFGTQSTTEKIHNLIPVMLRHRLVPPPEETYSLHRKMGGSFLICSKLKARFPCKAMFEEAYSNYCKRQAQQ
UniProt P51955, sequence (whole entry, looked up): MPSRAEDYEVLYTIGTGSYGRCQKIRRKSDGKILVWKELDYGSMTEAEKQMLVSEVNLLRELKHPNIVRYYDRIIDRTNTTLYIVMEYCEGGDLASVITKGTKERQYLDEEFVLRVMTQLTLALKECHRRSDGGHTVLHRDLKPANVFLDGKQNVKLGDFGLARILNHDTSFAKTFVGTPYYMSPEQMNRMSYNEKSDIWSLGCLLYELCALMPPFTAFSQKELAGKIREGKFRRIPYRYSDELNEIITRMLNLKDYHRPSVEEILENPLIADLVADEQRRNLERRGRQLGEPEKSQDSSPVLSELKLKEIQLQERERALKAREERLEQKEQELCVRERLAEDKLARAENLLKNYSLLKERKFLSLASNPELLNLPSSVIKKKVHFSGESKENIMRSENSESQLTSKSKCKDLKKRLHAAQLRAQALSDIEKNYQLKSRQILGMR

Study 1
Compound: CN([C@@H]1CCc2c(CC(=O)O)c3ccccc3n2C1)S(=O)(=O)c1ccc(F)cc1
Read-out: cell-free assay
Technique: competition with immobilised ligand
Tested at: 1 µM
The remaining binding was 100% (COQ8A (Homo sapiens, UniProt Q8NI60)).
For TRPM6 (Homo sapiens, UniProt Q9BX84): remaining binding read 85%.
The remaining binding was 100% (NEK2 (Homo sapiens, UniProt P51955)).
The remaining binding was 100% (CSNK1G3 (Homo sapiens, UniProt Q9Y6M4)).
It gave 100% for remaining binding (CDKL2 (Homo sapiens, UniProt Q92772)).
The remaining binding was 100% (Ribosomal protein S6 kinase alpha-6, N-terminal kinase domain (RPS6KA6, Homo sapiens, UniProt Q9UK32)).

Study 2
Target: Beta-1 adrenergic receptor (ADRB1, Homo sapiens, UniProt P08588)
UniProt P08588, sequence (whole entry, looked up): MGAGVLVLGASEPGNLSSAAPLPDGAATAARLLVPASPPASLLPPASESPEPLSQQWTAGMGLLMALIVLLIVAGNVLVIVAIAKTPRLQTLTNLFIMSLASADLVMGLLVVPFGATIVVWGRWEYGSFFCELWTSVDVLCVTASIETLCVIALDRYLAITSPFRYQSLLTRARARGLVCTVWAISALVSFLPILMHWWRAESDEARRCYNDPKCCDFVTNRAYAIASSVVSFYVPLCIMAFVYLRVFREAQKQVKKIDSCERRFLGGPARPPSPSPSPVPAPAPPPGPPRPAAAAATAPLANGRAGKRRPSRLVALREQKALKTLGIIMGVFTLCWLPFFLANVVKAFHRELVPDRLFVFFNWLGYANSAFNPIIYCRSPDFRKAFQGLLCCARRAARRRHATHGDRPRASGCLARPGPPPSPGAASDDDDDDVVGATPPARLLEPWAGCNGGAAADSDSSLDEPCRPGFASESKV
Action: agonist
Cc1noc2c(N3CCNC(=O)C3)cc(-c3cccc(C(F)(F)F)c3)nc12 gave an EC50 of ≥ 100 µM.
With COc1cccc(F)c1C(=O)Nc1ccc2ccccc2n1 the EC50 was ≥ 100 µM.
With CN1CCN(Cc2cccc(OCC(O)CN3CCc4ccccc4C3)c2)CC1 (centres unmarked) the EC50 was ≥ 100 µM.
Cc1noc(C)c1-c1cc2cc(C(C)C)oc2c(NCCN2CCOCC2)n1 gave an EC50 of ≥ 100 µM.
The EC50 of CN(C)c1cc(=O)c2ccnc(-c3ccc(O)c(F)c3)c2o1 is reported as ≥ 100 µM.

Study 3
Target: Tyrosine-protein kinase Mer (MERTK, Homo sapiens, UniProt Q12866)
UniProt Q12866, sequence (whole entry, looked up): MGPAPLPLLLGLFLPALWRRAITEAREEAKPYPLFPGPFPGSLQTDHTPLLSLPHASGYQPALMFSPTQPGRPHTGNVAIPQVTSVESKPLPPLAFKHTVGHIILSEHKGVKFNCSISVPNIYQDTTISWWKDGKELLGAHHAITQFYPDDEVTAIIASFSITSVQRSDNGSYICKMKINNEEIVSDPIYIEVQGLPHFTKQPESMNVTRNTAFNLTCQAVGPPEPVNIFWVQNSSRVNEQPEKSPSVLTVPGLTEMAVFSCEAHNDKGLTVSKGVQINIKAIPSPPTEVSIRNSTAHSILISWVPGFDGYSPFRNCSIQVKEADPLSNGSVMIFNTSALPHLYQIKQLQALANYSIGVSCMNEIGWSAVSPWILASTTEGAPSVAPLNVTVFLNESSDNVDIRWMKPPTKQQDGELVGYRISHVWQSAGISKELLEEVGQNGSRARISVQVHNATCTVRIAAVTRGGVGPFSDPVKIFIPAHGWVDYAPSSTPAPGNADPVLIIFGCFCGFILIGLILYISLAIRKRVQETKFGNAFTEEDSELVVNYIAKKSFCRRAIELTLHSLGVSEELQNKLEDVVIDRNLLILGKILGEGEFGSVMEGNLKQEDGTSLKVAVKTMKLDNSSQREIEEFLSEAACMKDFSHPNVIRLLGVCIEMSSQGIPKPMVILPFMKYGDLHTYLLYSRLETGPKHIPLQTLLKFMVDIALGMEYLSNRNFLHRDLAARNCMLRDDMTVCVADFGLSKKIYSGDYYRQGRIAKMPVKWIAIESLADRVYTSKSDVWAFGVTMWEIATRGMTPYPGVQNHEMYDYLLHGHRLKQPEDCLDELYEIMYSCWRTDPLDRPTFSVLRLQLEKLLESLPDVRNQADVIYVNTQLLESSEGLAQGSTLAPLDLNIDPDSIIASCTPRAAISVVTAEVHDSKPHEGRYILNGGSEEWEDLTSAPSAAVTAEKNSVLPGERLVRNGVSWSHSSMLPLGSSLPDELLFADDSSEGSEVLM
Read-out: enzyme activity
Action: inhibitor
Tested at: 0.5 µM
Relative to: control
C#Cc1cccc(Nc2ncnc3cc(OCCOC)c(OCCOC)cc23)c1 gave a remaining activity of 99%.
For Oc1ccc(-c2nc(-c3ccncc3)c(-c3ccc(F)cc3)[nH]2)cc1, the remaining activity was 85.2%.
The remaining activity of Cc1ccc(Nc2nccc(N(C)c3ccc4c(C)n(C)nc4c3)n2)cc1S(N)(=O)=O is reported as 57.2%.
With COc1ccc(CNC(=O)Nc2ncc([N+](=O)[O-])s2)cc1 the remaining activity was 91.2%.
COc1cc2nccc(Oc3ccc(NC(=S)NC(=O)c4ccccc4C)cc3)c2cc1OC gave a remaining activity of 32.3%.
O=C(Nc1cccc(Nc2cc(Nc3cccc(C(F)(F)F)c3)ncn2)c1)C1CC1 gave a remaining activity of 97.3%.
With Cc1ccc(NC(=O)c2ccc(CN3CCN(C)CC3)cc2)cc1Nc1nc(-c2cccnc2)cs1 the remaining activity was 109%.
The remaining activity of O=C(CCCc1ccc(-c2ccccc2F)cc1)Nc1ccc(O)cc1 is reported as 98.8%.
Nc1[nH]nc2nc3ccccc3nc12 gave a remaining activity of 92.9%.
For COc1ccc(OC)c2c(=S)c3ccccc3[nH]c12, the remaining activity was 86.7%.
The remaining activity of O=S(=O)(c1cccc2cnccc12)N1CCCNCC1 is reported as 88.3%.
O=C(O)c1ccc2c3c1cccc3c(=O)n1c3ccccc3nc21 gave a remaining activity of 77.7%.
For Cn1sc(=O)n(Cc2ccccc2)c1=O, the remaining activity was 92.8%.
For CCOC(=O)c1c(C)[nH]c(/C=C2\C(=O)Nc3ccccc32)c1C, the remaining activity was 69.3%.
Nc1ccc2ncnc(NCCc3ccc(Oc4ccccc4)cc3)c2c1 has a remaining activity of 102%.

Study 4
Cell line: mouse MPNST tumor cells
Technique: high-content nuclear imaging
Measured: cell number
Tested at: 10 µM
Time: 12 h
Setting: mean of 2 replicates
Relative to: plate mean
Direction: higher = more cells
CC(=O)OCC1=C(C(=O)O)N2C(=O)[C@@H](NC(=O)Cc3cccs3)[C@H]2SC1 gave a nuclei count of 2.01 z-score.
With CC(C)[C@H](CO)Nc1nc(Nc2ccc(C(=O)O)c(Cl)c2)c2ncn(C(C)C)c2n1 the nuclei count was 0.131 z-score.
NC(Cc1cc(I)c(Oc2cc(I)c(O)c(I)c2)c(I)c1)C(=O)O (centres unmarked) gave a nuclei count of -0.144 z-score.
CC(=O)c1cc(-c2cc(C(=O)NC3CC3)ccc2C)c2ncccn12 has a nuclei count of -2.16 z-score and -3.32 z-score.
O=C(Nc1ccc(C(O)(C(F)(F)F)C(F)(F)F)cc1)c1ccccc1Cl has a nuclei count of 0.94 z-score.
With N#Cc1cc(F)c(C(=O)Nc2ccnc(NC(=O)[C@H]3C[C@H]3F)c2)c(Cl)c1 the nuclei count was 2.83 z-score.

Some of these lines once more (study 4):
O=C(Nc1ccc(C(O)(C(F)(F)F)C(F)(F)F)cc1)c1ccccc1Cl has a nuclei count of 0.94 z-score.
CC(=O)OCC1=C(C(=O)O)N2C(=O)[C@@H](NC(=O)Cc3cccs3)[C@H]2SC1 gave a nuclei count of 2.01 z-score.
